{"data": "Assay results of several laboratories", "TMPRSS2": "Transmembrane protease serine 2 (TMPRSS2, Homo sapiens, UniProt O15393)", "PFF0160c E182D": "Dihydroorotate dehydrogenase (quinone), mitochondrial (PFF0160c, Plasmodium falciparum, UniProt Q08210, E182D)", "chain of UniProt O15393 (whole entry, looked up)": "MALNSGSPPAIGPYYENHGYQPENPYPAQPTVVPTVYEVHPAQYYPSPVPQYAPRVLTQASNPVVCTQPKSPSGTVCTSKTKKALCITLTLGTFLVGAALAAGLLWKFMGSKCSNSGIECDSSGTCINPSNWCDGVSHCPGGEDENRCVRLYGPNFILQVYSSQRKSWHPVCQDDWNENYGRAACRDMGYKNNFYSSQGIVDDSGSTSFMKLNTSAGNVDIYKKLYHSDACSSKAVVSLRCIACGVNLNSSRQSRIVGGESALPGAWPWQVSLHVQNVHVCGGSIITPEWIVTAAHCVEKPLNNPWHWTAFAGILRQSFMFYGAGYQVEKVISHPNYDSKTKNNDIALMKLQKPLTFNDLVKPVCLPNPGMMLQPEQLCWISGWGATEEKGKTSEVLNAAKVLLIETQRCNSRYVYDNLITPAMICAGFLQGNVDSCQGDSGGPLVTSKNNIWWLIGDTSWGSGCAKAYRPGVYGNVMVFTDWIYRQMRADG", "chain of UniProt P06213 (whole entry, looked up)": "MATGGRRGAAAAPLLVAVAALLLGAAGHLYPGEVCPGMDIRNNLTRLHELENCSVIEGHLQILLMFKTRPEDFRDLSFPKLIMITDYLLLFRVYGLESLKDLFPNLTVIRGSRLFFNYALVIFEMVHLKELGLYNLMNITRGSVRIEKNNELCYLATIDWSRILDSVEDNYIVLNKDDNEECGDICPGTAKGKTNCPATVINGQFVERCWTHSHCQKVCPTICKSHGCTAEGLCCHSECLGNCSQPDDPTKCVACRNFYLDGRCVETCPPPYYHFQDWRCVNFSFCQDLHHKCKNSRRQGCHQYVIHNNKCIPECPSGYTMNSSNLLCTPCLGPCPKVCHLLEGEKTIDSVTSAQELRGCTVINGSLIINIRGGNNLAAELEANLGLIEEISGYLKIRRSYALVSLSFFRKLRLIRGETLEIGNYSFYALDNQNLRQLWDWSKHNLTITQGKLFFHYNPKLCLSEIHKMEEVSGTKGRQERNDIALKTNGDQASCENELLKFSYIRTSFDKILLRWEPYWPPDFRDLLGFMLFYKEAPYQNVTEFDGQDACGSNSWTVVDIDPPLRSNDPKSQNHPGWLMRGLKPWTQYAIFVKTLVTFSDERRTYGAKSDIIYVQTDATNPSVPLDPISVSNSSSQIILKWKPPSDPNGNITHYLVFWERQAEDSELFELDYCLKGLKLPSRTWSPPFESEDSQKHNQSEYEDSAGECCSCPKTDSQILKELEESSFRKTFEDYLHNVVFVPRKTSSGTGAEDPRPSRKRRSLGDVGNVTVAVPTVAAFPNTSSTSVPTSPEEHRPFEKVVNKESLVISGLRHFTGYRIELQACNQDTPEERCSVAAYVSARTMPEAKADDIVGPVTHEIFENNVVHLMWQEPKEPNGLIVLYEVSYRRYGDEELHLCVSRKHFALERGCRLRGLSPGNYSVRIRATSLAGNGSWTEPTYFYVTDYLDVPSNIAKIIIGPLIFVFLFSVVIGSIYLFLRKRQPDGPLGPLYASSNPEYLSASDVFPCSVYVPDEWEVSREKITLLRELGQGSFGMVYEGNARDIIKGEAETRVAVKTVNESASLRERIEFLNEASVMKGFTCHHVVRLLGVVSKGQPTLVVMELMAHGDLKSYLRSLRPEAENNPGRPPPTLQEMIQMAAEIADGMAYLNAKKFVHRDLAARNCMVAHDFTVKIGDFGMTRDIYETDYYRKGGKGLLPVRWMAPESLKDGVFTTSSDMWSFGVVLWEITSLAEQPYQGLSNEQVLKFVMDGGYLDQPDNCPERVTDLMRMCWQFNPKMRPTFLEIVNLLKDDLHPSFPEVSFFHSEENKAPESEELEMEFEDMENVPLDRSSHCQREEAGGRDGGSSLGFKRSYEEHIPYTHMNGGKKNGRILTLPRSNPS", "chain of UniProt P28335 (whole entry, looked up)": "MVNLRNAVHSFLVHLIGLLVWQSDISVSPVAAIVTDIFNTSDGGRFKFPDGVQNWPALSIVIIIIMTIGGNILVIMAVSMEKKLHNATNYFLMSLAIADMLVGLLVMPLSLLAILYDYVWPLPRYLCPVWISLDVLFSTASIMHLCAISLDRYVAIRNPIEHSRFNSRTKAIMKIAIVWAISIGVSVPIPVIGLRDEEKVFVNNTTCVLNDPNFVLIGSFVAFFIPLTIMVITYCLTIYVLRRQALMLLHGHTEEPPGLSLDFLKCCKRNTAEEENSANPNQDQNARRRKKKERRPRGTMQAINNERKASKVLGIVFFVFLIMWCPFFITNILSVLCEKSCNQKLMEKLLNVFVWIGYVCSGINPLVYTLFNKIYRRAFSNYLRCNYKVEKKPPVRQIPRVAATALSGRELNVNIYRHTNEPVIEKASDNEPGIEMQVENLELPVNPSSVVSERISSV", "chain of UniProt Q9Y4K4 (whole entry, looked up)": "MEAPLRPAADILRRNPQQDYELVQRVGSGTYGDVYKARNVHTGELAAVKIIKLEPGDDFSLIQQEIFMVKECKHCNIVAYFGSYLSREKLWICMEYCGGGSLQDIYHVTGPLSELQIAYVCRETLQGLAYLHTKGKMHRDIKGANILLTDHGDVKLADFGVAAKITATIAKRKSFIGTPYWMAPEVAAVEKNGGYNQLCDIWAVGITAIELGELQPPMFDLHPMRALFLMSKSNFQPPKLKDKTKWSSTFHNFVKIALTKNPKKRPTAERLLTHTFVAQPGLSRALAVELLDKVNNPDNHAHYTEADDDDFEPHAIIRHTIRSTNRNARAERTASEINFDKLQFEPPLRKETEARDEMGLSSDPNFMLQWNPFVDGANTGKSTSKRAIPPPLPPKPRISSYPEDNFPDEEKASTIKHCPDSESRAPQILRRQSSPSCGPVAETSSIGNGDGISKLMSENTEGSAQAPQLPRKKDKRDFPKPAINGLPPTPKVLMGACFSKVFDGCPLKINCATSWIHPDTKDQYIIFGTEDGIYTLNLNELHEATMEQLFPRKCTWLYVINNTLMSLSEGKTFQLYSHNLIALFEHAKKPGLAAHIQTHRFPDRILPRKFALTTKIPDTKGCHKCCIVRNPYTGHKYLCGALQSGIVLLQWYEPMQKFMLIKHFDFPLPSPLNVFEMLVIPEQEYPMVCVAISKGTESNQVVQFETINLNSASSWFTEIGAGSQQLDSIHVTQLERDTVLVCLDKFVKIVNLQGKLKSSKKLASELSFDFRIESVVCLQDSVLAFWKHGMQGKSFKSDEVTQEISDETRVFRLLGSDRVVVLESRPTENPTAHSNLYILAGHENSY", "chain of UniProt Q9UIK4 (whole entry, looked up)": "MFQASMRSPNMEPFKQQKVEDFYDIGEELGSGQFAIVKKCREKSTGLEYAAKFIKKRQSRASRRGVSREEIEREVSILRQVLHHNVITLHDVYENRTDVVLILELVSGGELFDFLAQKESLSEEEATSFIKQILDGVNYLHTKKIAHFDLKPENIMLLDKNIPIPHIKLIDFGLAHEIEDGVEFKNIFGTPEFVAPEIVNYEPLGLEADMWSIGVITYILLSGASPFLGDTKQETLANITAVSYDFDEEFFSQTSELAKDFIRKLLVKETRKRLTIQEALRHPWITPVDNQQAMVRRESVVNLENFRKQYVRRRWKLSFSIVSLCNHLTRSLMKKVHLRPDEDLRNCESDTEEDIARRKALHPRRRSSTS"}
{"SMILES": "C#Cc1n[nH]c2c(-c3cn([C@@H](C)c4ccccn4)c(=O)[nH]c3=O)cc(F)cc12", "tested on": "ULK2 (Homo sapiens, UniProt Q8IYT8)", "test": "enzyme activity, inhibitor", "conditions": "0.1 µM", "quantity": "inhibition", "result": "-2.7%"}
{"SMILES": "CC(=O)N[C@@H](CCC(=O)O)C(=O)N[C@@H](Cc1ccccc1)C(=O)N[C@@H](CCCNC(=N)N)C(=O)c1nc2ccccc2s1", "tested on": "TMPRSS2", "test": "enzyme activity, inhibitor", "conditions": "1 nM", "quantity": "activity vs control", "result": "60%"}
{"SMILES": "COc1cc(CCNC(C)c2ccccc2O)c(OC)cc1C#N (single isomer, unassigned; (-))", "tested on": "HTR2C (Homo sapiens, UniProt P28335)", "test": "G protein activation, agonist, BRET", "quantity": "EC50", "result": "0.046 µM"}
{"SMILES": "CCC(C)[C@H](N)C(=O)N[C@@H](CCC(N)=O)C(=O)N[C@@H](C)C(=O)N[C@H](CCCNC(=N)N)C(=O)c1nc2ccccc2s1 (stereo partly shown)", "tested on": "TMPRSS2", "test": "enzyme activity, inhibitor", "conditions": "1 nM", "quantity": "activity vs control", "result": "69%"}
{"SMILES": "[2H]c1c([2H])c([C@]2([2H])CCCN2C(=O)C(C)(C)Oc2ccc3cn[nH]c3c2)c([2H])c([2H])c1C([2H])([2H])[2H]", "tested on": "DAPK2 (Homo sapiens, UniProt Q9UIK4)", "test": "binding, competition with immobilised ligand", "conditions": "1 µM", "quantity": "remaining binding", "result": "88%"}
{"SMILES": "CC(C)CC(=O)OC[C@H]1O[C@@](C#N)(c2ccc3c(N)ncnn23)[C@H](O)[C@@H]1O", "tested on": "Insulin receptor (INSR, Homo sapiens, UniProt P06213)", "test": "cell-free assay", "conditions": "20 µM", "quantity": "inhibition", "result": "0%"}
{"SMILES": "CCCn1c(O)nnc1SCC(=O)Nc1cc(Cl)ccc1Cl", "tested on": "PFF0160c E182D", "test": "enzyme activity, inhibitor, absorbance", "quantity": "IC50", "result": "3.69 µM"}
{"SMILES": "N.N.[Cl][Pt][Cl]", "tested on": "CCRF-CEM", "test": "cell growth or viability, ATP luminescence", "conditions": "10 µM, 72 h", "quantity": "inhibition", "result": "100%"}
{"SMILES": "Cc1nn(C)cc1-c1nc2c(N3CCN(Cc4ccc(Cl)cc4)CC3)c(Cl)cnc2[nH]1", "tested on": "Tyrosine-protein kinase ABL1, non-phosphorylated (ABL1, Homo sapiens, UniProt P00519, F317I)", "test": "binding, competition with immobilised ligand", "conditions": "1 µM", "quantity": "remaining binding", "result": "100%"}
{"SMILES": "Nc1ncc(-c2nc(N3CCOCC3)nc(N3CCOCC3)n2)c(C(F)F)n1", "tested on": "EGFR (Homo sapiens, UniProt P00533)", "test": "cell-free assay, competition with immobilised ligand", "conditions": "10 µM", "quantity": "remaining binding", "result": "56%"}
{"SMILES": "CC(=O)N[C@@H](CCC(N)=O)C(=O)N[C@@H](Cc1ccccc1)C(=O)N[C@H](CCCNC(=N)N)C(=O)Cc1ccccc1", "tested on": "TMPRSS2", "test": "enzyme activity, inhibitor", "conditions": "1 nM", "quantity": "activity vs control", "result": "94%"}
{"SMILES": "COc1ncccc1-c1cnn2ccc(N3CCN(C(=O)OC(C)C)CC3)nc12", "tested on": "MAP4K5 (Homo sapiens, UniProt Q9Y4K4)", "test": "binding, competition with immobilised ligand", "conditions": "1 µM", "quantity": "remaining binding", "result": "76%"}
{"SMILES": "O=c1[nH]c(CSc2ccc3c(c2)CCC3)nc2scc(-c3ccco3)c12", "tested on": "PFF0160c E182D", "test": "enzyme activity, inhibitor, absorbance", "quantity": "IC50", "result": "8.6 µM"}
{"note": "Some of these lines once more:"}
{"SMILES": "[2H]c1c([2H])c([C@]2([2H])CCCN2C(=O)C(C)(C)Oc2ccc3cn[nH]c3c2)c([2H])c([2H])c1C([2H])([2H])[2H]", "tested on": "DAPK2 (Homo sapiens, UniProt Q9UIK4)", "test": "binding, competition with immobilised ligand", "conditions": "1 µM", "quantity": "remaining binding", "result": "88%"}
